Published values pooled from the literature.
Parts stem from different laboratories: compare values within a part only. “And” joins repeats or separate records; there may be more than shown.
Sequence of UniProt Q05940 (whole entry, looked up): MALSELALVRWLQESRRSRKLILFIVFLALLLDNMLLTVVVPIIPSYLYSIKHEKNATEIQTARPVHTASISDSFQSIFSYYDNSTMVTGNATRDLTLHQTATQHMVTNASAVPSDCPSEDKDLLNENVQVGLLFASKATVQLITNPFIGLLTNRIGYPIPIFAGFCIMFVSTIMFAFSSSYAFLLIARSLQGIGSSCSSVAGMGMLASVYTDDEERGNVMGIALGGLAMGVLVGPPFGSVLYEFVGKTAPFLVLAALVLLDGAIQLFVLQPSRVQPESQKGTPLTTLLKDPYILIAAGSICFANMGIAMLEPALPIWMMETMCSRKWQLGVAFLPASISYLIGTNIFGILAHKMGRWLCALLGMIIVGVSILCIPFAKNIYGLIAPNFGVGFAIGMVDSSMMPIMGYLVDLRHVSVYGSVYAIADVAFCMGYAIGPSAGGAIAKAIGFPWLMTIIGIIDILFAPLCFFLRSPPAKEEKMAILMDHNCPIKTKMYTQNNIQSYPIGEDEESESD

Series 1
Organism: Sarcocystis neurona
Read-out: parasite growth
Tested at: 10 µM
Time: 96 h
Setting: first screen
Measurement: inhibition
O=C1c2c(O)cc(O)cc2OC(c2ccc(O)c(O)c2)C1O (centres unmarked): -6.6%
Cc1ccc(Cl)c(Nc2ccccc2C(=O)O)c1Cl: -4.4%
Cc1ncc([N+](=O)[O-])n1CCO: -0.0223%

Series 2
Target: Muscarinic acetylcholine receptor M5 (CHRM5, Homo sapiens, UniProt P08912)
Sequence of UniProt P08912 (whole entry, looked up): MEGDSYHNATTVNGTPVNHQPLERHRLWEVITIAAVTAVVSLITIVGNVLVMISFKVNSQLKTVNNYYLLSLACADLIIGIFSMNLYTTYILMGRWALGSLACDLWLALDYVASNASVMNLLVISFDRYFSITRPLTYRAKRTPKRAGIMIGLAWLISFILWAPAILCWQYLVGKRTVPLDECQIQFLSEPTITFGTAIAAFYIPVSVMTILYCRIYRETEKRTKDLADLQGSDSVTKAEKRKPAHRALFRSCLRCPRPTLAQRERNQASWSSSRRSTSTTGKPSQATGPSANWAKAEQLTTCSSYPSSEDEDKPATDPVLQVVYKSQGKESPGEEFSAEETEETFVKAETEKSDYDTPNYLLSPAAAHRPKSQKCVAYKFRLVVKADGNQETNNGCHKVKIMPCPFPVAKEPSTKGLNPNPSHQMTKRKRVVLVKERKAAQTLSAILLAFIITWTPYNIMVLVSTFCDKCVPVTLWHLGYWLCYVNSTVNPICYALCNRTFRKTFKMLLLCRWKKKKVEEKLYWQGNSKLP
Read-out: binding
Technique: radioligand binding
Tested at: 10 µM
Measurement: inhibition
Cc1nc(Cc2cccc(C(F)(F)F)c2)sc1-c1ccc(C(N)=O)nc1: 11.2%
COc1nc2ccc([C@@](O)(c3ccccc3)C3CCN(C(C)=O)CC3)cc2c(Cl)c1Cc1ccc(-n2cccn2)cc1: -16.1%
CNC(=O)Nc1ccc2c(c1)[C@]1(CC2)OC(=O)N(CC(=O)N(Cc2ccc(F)cc2)[C@@H](C)C(F)(F)F)C1=O: -2.77%
O=C1c2ccc(Nc3ccc(F)cc3F)cc2CCc2ccc(OC[C@H](O)CO)cc21: -9.46%
O=C([C@H]1C[C@H](O)CN1c1ccc(Cl)cc1)N1CC2COCC(C1)N2Cc1ccc(Cl)cc1: -1.65%
Cc1cc(-n2nc(Cc3cc(F)cc(C(F)(F)F)c3)nc2C)ccc1C(N)=O: -2.07%
C[C@H](NC(=O)c1cnc2n1[C@](C)(Cc1ccc(C#N)cc1)C(=O)N2c1cc(Cl)c(F)c(Cl)c1)C(=O)NC1(c2ccccn2)CC1: -11.8%
Cc1cc(C)c(-n2ccn3nc(-c4cccnc4)cc23)cc1NC(=O)c1cc(C#N)cc(S(F)(F)(F)(F)F)c1: 16.1%
O=C(Nc1cccnn1)N1CC(CC=Cc2cncc(Oc3ccc(C(F)(F)F)cn3)n2)C1: -0.59%
Cc1nc(N2CC[C@@H](O)C2)ncc1-c1cc(C(F)(F)F)cc2[nH]ncc12: 0.643%
CC(=O)N1CCC(c2ccc(C(=O)NC(=N)N)cc2C(F)(F)F)CC1: -8.36%
CN1CCN(C(=O)C(C)(C)c2ccc(C(=O)Nc3cn4cc(-c5ccncc5)ccc4n3)cc2)CC1: 9.31%
Cc1c[nH]c2nccc(Oc3c(F)cc(Nc4cc(Cl)nc(N)n4)cc3F)c12: -3.6%
O=C1CCc2cc(Nc3cc(OC4CCOCC4)c([N+](=O)[O-])cc3Cl)ccc2N1: 12.6%
Cc1c(N2CCCC2)nc2ccc(Br)cc2c1C(=O)NC[C@H](CCC(=O)O)c1ccccc1Cl: 9.92%
CC(=O)c1c(NS(C)(=O)=O)c2cc(-c3ccc(Cl)cc3)c(-c3ccc(Cl)cc3Cl)nc2n(C)c1=O: -4.93%
CC1=C(C#N)[C@@H](c2ccc3[nH]nc(C)c3c2)C(C#N)=C(c2ccc(Cl)cc2)N1: 9.95%
COCCc1ccc(-c2c(C)nc3c(N4CCOCC4)ccnn23)cn1: -1.98%
COCc1nc2cnc3cc(-c4c(C)noc4C)c(OC[C@H]4CCNC4)cc3c2n1[C@H](C)c1ccccc1: 24.6%
O=C(Nc1cccnn1)N1CCC(=Cc2cccc(Oc3ccc(C(F)(F)F)cn3)c2)CC1: 23.5%
CC1=C(C#N)C(c2ccc3c(c2)c(NC(=O)c2ccccc2C)nn3C)C(C#N)=C(C)N1: 6.82%

Series 3
Compound: O=C1CCC(N2Cc3cc(C4CCN(Cc5ccccc5)CC4)ccc3C2=O)C(=O)N1 (centres unmarked)
Medium: plasma
Measurement: concentration
male CD-1 mouse; oral, 3 mg/kg, 2 h: 108 ng/mL
male Sprague-Dawley rat; intravenous, 1 mg/kg, 24 h: 1.14 ng/mL
male Sprague-Dawley rat; oral, 3 mg/kg, 4 h: 61.8 ng/mL

Series 4
Host: mouse
Medium: microsomes or S9
Tested at: 2 µM
Time: 0.5 h
Measurement: remaining compound
C(=C\c1ccccc1)/CNCCCN1CCOCC1: 24.8%
CC(C)S(=O)(=O)c1ccc(CC(=O)NCC(O)Cn2ccccc2=O)cc1 (centres unmarked): 0.217%
CC(=O)N(c1nc(COC(=O)/C=C/c2cnn(C)c2)cs1)c1c(C)cc(C)cc1C: 0.0758%

Series 5
Target: Prothrombin, mature alpha-thrombin (F2, Homo sapiens, UniProt P00734)
Technique: aptamer microarray, sandwich
Molecule type: DNA with 2'F-ANA
Medium: in vitro
Tested at: 200 nM
Setting: whole 15-mer aptamer, many near background
Together with: Cy3 exosite-II aptamer, 400 nM
Direction: higher = stronger binding
Measurement: mean fluorescence intensity
Strand: GGTTGGTGTGGTTGG
2'F-ANA at 2 3 7 9 11 13 14 15: 331 a.u.
2'F-ANA at 1 2 11 13 15: 119 a.u.
2'F-ANA at 2 5 7 8 12 13 14 15: 47.2 a.u.
2'F-ANA at 1 2 4 5 6 7 9 10 12 13 14: 77.1 a.u.
2'F-ANA at 1 4 5 7 9 11 14 15: 74.6 a.u.
2'F-ANA at 6 7 9 10: 171 a.u.
2'F-ANA at 1 3 5 7 10 12 13 15: 50.5 a.u.
2'F-ANA at 2 4 5 8 10 12 14 15: 48.4 a.u.

Series 6
Organism: Plasmodium berghei
Action: inhibitor
Cells: Huh-7
Strain: GFP-expressing sporozoites, liver stage
Tested at: 10 µM
Time: 24 h
Baseline: untreated control
Measurement: infection rate
CN(C)CCCOc1nn(Cc2ccccc2)c2ccccc12: 26.3%
CNCCCN1c2ccccc2CCc2ccccc21: 79%
NS(=O)(=O)c1cc2c(cc1Cl)N=CNS2(=O)=O: 97.6%
CN(C)c1ccc(O)c2c1C[C@H]1C[C@H]3[C@H](N(C)C)C(O)=C(C(N)=O)C(=O)[C@@]3(O)C(O)=C1C2=O: 10%

Other studies, line by line
CC(C)n1cnc(-c2ccc(F)cc2)c1-c1ncc(C(=O)Nc2ccc(N3CCN(C)CC3)cc2)[nH]1 — patients with drug eruption TEAE (phase 2a clinical trial; patients with idiopathic pulmonary fibrosis; 30 mg once daily): 0%
COc1ccc(-c2c(Nc3ccccn3)[nH]c3c(C4=CCCCC4)c(-c4ccccc4)nn3c2=O)cc1 — dose-normalised AUC(0-tau) (human, plasma; oral, 200 mg twice daily): 665 ng·h/mL/mg and 618 ng·h/mL/mg and 620 ng·h/mL/mg
COc1cc(C(=O)N2CCC(N3CCN(C)CC3)CC2)ccc1Nc1ncc2c(n1)N(C)c1ccccc1C(=O)N2C — inhibition (human PBMC; probe labeling, inhibitor, KiNativ profiling, refers to: DLkPQNLLINR; cell lysate; concentration not given, LYS2 site, together with: ATP acyl-phosphate probe): -8.9%
CC(=O)N[C@@H](Cc1c[nH]c2ccccc12)C(=O)N[C@@H](CCC(=O)C=[N+]=[N-])C(=O)OC(C)C — thiamin level (UPLC-MS/MS; EL4 tumor, C57BL/6 CES1-/- mice, tumor; subcutaneous, 0.3 mg/kg DON equivalent daily, 5 days; higher = more metabolite): 1.33e+07 a.u. and 1.12e+07 a.u. and 8.99e+06 a.u. and 1.11e+07 a.u. and 6.66e+06 a.u. and 1.1e+07 a.u.
CN1CCN(CC/C=C2/c3ccccc3Sc3ccc(S(=O)(=O)N(C)C)cc32)CC1 — IC50 (Synaptic vesicular amine transporter (SLC18A2, Homo sapiens, UniProt Q05940); monoamine uptake, inhibitor): 6.4 µM

Repeated from above (series 2):
O=C([C@H]1C[C@H](O)CN1c1ccc(Cl)cc1)N1CC2COCC(C1)N2Cc1ccc(Cl)cc1: -1.65%
COCCc1ccc(-c2c(C)nc3c(N4CCOCC4)ccnn23)cn1: -1.98%
Cc1cc(C)c(-n2ccn3nc(-c4cccnc4)cc23)cc1NC(=O)c1cc(C#N)cc(S(F)(F)(F)(F)F)c1: 16.1%
CC(=O)c1c(NS(C)(=O)=O)c2cc(-c3ccc(Cl)cc3)c(-c3ccc(Cl)cc3Cl)nc2n(C)c1=O: -4.93%
COCc1nc2cnc3cc(-c4c(C)noc4C)c(OC[C@H]4CCNC4)cc3c2n1[C@H](C)c1ccccc1: 24.6%
Cc1nc(N2CC[C@@H](O)C2)ncc1-c1cc(C(F)(F)F)cc2[nH]ncc12: 0.643%
Cc1nc(Cc2cccc(C(F)(F)F)c2)sc1-c1ccc(C(N)=O)nc1: 11.2%
